Experimental data collected from several papers.
Protocols differ between the studies behind these lines. Numbers after ± are the reported error.

| SMILES | test | test system | conditions | Cmax |
| --- | --- | --- | --- | --- |
| CCOc1c([C@H](C)n2nc(C)c3c(N)ncnc32)cc(Cl)c(F)c1[C@@H]1CNC(=O)C1 |  | patients, monotherapy | oral, 20 mg once daily, cycle 1 day 15 | 1280 ± 437 nM |
| CN[C@H](CC(C)C)C(=O)N[C@H]1C(=O)N[C@@H](CC(N)=O)C(=O)N[C@H]2C(=O)N[C@H]3C(=O)N[C@H](C(=O)N[C@H](C(=O)O)c4cc(O)cc(O)c4-c4cc3ccc4O)[C@H](O)c3ccc(c(Cl)c3)Oc3cc2cc(c3O[C@@H]2O[C@H](CO)[C@@H](O)[C@H](O)[C@H]2O[C@H]2C[C@](C)(N)[C@H](O)[C@H](C)O2)Oc2ccc(cc2Cl)[C@H]1O |  | C57BL/6N mouse H3, faeces, wet weight | po, 0.5 mL, 20 mg/mL solution | 3.9 mg/g |
| O=C(NCCN1CCCC1)c1cc(-c2ccc(CN3CCOCC3)cc2)nc2ccc(F)cc12 |  | NMRI mouse Plasmodium berghei-infected, blood | oral, 1.5 mg/kg, monotherapy | 191 nM |
| COc1ncc(-c2nc3c(n2C(C)C)[C@H](c2ccc(Cl)cc2)N(c2cc(Cl)cn(C)c2=O)C3=O)c(OC)n1 | LC-MS/MS, noncompartmental | human, plasma | oral, 150 mg, C1D8, high-dose, geometric mean | 1140 ng/mL |
| COc1nc(-c2cc(C)c(N[C@@H](C)c3cc(F)cc(F)c3)nn2)ccc1-n1cnc(C)c1 |  | cynomolgus monkey, male, plasma | intravenous, 1 mg/kg | 1320 ng/mL |
| CN(C(=O)n1cnc(-c2ccc[n+]([O-])c2)c1)C1CCCCC1 |  | cynomolgus monkey, male, plasma | oral, 1.0 mg/kg | 503 ng/mL |
| CCc1nc(C(N)=O)c(Nc2ccc(N3CCC(N4CCN(C)CC4)CC3)c(OC)c2)nc1NC1CCOCC1 |  | Japanese patients, plasma | oral, 80 mg, cycle 1 day 28, multiple doses, median | 216 ng/mL |
| CNC(=O)c1ccc(-c2cnc3ncc(Cc4ccc5ncccc5c4)n3n2)cc1F |  | human moderate hepatic impairment | oral, 200 mg single dose, covariate-adjusted geometric mean | 1440 ng/mL |
| C=CCn1c(=O)c2cnc(Nc3ccc(N4CCN(C)CC4)cc3)nc2n1-c1ccc2c(n1)[C@@](O)(CC)CC2 |  | OVCAR-3, female NOD/SCID mouse xenograft, plasma | oral, 60 mg/kg once daily | 3710 ng/mL |
| CCn1cc(C(=O)N2CCOCC2)c(=O)c2cc(NC3Cc4ccccc4C3)cnc21 |  | human, fasted | oral suspension, 50 mg single dose, arithmetic mean | 248 ng/mL |
| CN(C(=O)n1cnc(-c2cccnc2)c1)[C@H]1CC[C@H](O)CC1 |  | cynomolgus monkeys, plasma | oral, 1.0 mg/kg | 30.6 ng/mL |
| CN1C(=O)[C@@H](NC(=O)c2nnc(Cc3ccccc3)[nH]2)COc2cccnc21 |  | healthy human, fasted, plasma | oral, 30 mg single dose, geometric mean | 692 ng/mL |
| CN1CCC[C@H](CN2c3ccccc3Sc3ccccc32)C1.Cl |  | fasted female ICR mouse, kidney | oral, 16 mg/kg | 0.00381 mg/g |
| CC[C@H](C)[C@@H]1NC(=O)[C@@](C)(NC(=O)[C@H](CCCNC(=N)N)NC(=O)[C@H](CC(C)C)NC(=O)[C@@H](NC(=O)[C@H](CCC(N)=O)NC(=O)[C@H](CC(C)C)NC(C)=O)[C@@H](C)O)CCCC=CCCC[C@@](C)(C(=O)N[C@@H](CC(C)C)C(=O)N[C@@H](Cc2ccc3ccccc3c2)C(N)=O)NC(=O)[C@H](CCCNC(=N)N)NC(=O)[C@H](CCC(N)=O)NC1=O |  | BALB/c mouse, plasma | iv, 5 mg/kg | 47400 ng/mL |

Some of these lines once more:
| SMILES | test | test system | conditions | Cmax |
| --- | --- | --- | --- | --- |
| CCOc1c([C@H](C)n2nc(C)c3c(N)ncnc32)cc(Cl)c(F)c1[C@@H]1CNC(=O)C1 |  | patients, monotherapy | oral, 20 mg once daily, cycle 1 day 15 | 1280 ± 437 nM |
| CN[C@H](CC(C)C)C(=O)N[C@H]1C(=O)N[C@@H](CC(N)=O)C(=O)N[C@H]2C(=O)N[C@H]3C(=O)N[C@H](C(=O)N[C@H](C(=O)O)c4cc(O)cc(O)c4-c4cc3ccc4O)[C@H](O)c3ccc(c(Cl)c3)Oc3cc2cc(c3O[C@@H]2O[C@H](CO)[C@@H](O)[C@H](O)[C@H]2O[C@H]2C[C@](C)(N)[C@H](O)[C@H](C)O2)Oc2ccc(cc2Cl)[C@H]1O |  | C57BL/6N mouse H3, faeces, wet weight | po, 0.5 mL, 20 mg/mL solution | 3.9 mg/g |
